Measured values gathered from unrelated publications.
Parts stem from different laboratories: compare values within a part only. Positions count from the first letter of the parent shown.

Study 1
Target: Interferon regulatory factor 5, full length, phosphomimetic (IRF5, Homo sapiens, UniProt Q13568-2, residues 1-514, S451D/S453D/S456D/S462D)
Method: protein-binding microarray
Form: double-stranded DNA, one strand shown
Matrix: in vitro
Concentration: 940 nM top
Notes: 60-bp whole probe
Together with: salmon DNA 0.4 mg/ml
Baseline: random background probes
Reading: higher = stronger binding
All sequences stand within: GCCTAGCAC … GTCTTGATTCGCTTGACGCTGCTG
Strand	fitted relative affinity
TCATGTCTGGAGTCTCTGACTGTGCTA	-0.111 z-score
TTAGGTAGCGGGTATCGGTTAGTGCTA	2.87 z-score
GACGGTTTCCTTATCTTGACGTGCTAG	1.39 z-score
CATCCTGAGTCAAGTCAAGTGTGCTAG	-0.618 z-score
AGTTTTTCATTTTTTTTCATGTGCTAG	2.08 z-score
GACGGTTTCCTCTCCCTGACGTGCTAG	1.2 z-score
TTAGGTATCGTACTGGGTTAGTGCTAG	2.49 z-score
GACGGAATGCTTCTCCTGACGTGCTAG	-0.388 z-score
TGCCTTTTGCTTTACTGATGGTGCTAG	0.557 z-score
GACGGTTTCGGGCTGGGGACGTGCTAG	7.16 z-score
GACGGTTTCGGGTTTCGGGCCGTGCTA	8.32 z-score
GACGTTATCAGACTGGAGACGTGCTAG	-0.366 z-score
TCTTTTATGGTATTTTTTTGGTGCTAG	1.91 z-score
TGAAATTTTAGTAACACAGAGTGCTAG	-0.128 z-score
TTAGGTTTCCTTCTCCCTTAGTGCTAG	2.2 z-score
TTAGACTTCAGACTGGATTAGTGCTAG	-0.645 z-score

Study 2
Target: Prothrombin, mature alpha-thrombin (F2, Homo sapiens, UniProt P00734)
Method: aptamer microarray, sandwich
Form: DNA with 2'F-ANA
Matrix: in vitro
Concentration: 200 nM
Notes: whole 15-mer aptamer, many near background
Together with: Cy3 exosite-II aptamer, 400 nM
Reading: higher = stronger binding
Strand: GGTTGGTGTGGTTGG
Modification	mean fluorescence intensity [a.u.]
2'F-ANA at 8 9 13 14	198
2'F-ANA at 1 2 3 4 5 13 15	130
2'F-ANA at 1 3 4 5 8 9 15	67.7
2'F-ANA at 1 2 3 5 9 10 13 14 15	48
2'F-ANA at 2 6 13	308
2'F-ANA at 1 6 8 9 11 13 14 15	52.6
2'F-ANA at 2 3 6 7 11 12 15	834
2'F-ANA at 1 3 6 9 10 13 15	69.7
2'F-ANA at 3 4 5 7 10 14	54.6
2'F-ANA at 1 2 7 8 9 11 12	331
2'F-ANA at 2 4 6 8 9 11 15	229
2'F-ANA at 1 2 4 7 10 13 14	62.6
2'F-ANA at 2 6 7 8 9 14	147
2'F-ANA at 2 3 6 9 10 13 15	262
2'F-ANA at 1 3 4 5 7 10 13	62.9
2'F-ANA at 1 3 4 8 9 11 15	194
2'F-ANA at 1 5 7 9 10 13 15	74.1
2'F-ANA at 4 6 7 8 10 11 12 13 14 15	58.3
2'F-ANA at 2 4 5 9 12 14	43.4
2'F-ANA at 3 6 7 9 13 14 15	436

Study 3
Target: CCNF, cyclin fold, Cln2 fusion (human)
Method: yeast growth competition, sequencing
Matrix: yeast
Notes: strong parent motif
Baseline: not given
Reading: higher = stronger binding
Starting sequence: HASPIN docking peptide (human); ASLRSVLFGLMNS; partner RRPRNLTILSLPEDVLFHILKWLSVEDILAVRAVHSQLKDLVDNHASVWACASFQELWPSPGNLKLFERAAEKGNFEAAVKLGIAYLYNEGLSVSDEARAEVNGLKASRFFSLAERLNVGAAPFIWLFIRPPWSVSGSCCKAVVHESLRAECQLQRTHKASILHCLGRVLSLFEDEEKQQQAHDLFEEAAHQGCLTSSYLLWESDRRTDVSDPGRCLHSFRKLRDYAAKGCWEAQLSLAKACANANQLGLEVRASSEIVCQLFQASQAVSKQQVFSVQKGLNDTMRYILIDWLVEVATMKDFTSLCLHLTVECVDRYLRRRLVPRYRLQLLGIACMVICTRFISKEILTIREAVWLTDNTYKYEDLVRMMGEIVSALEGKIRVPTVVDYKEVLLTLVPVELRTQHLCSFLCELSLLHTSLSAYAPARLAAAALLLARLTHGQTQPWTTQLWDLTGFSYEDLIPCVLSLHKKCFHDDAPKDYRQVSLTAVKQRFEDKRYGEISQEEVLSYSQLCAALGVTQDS
Substitution	normalised enrichment score
N12A	2.73
G9A	2.04
F8A	0.767
S13A	1.16
S2A	0.901
R4A	0.715

Study 4
Target: UBE2L3 UBC core domain (UniProt P68036)
Chain of UniProt P68036 (whole entry, looked up): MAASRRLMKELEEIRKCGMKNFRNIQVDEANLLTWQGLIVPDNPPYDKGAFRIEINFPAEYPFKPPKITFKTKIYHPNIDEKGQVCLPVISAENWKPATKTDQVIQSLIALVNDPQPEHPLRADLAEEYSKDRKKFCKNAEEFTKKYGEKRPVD
Method: yeast two-hybrid
Matrix: yeast
Notes: mostly zero background
Baseline: not given
Reading: higher = stronger interaction
B1: RNF32 RING domain (UniProt Q9H0A6); chain SLLQGDSVQPCPICKEEFELRPQVLLSCSHVFHKACLQAFEKFTNKKTCPLCRKNQYQTRVIH
B2: RNF4 RING domain (UniProt P78317); chain TGLRPSGTVSCPICMDGYSEIVQNGRLIVSTECGHVFCSQCLRDSLKNANTCPTCRKKINHKRYHP
B3: TRIM55 RING domain (UniProt Q9BYV6); chain TMDNLEKQLICPICLEMFTKPVVILPCQHNLCRKCASDIFQASNPYLPTRGGTTMASGGRFRCPSCRHEVVLDRHG
B4: RFPL2 RING domain (UniProt O75678); chain MAALFQEASSCPVCSDYLEKPMSLECGCAVCLKCINSLQKEPHGEDLLCCCSSMVSRKNKIRR
B5: ANKIB1 RING domain (UniProt Q9P2G1); chain LSPGDLDTSLCDICMCSISVFEDPVDMPCGHDFCRGCWESFLNLKIQEGEAHNIFCPAYDCFQLVPVDIIE
B6: RNF175 RING domain (UniProt Q8N4F7); chain LPTRSLSDNICAVCGQKIIVELDEEGLIENTYQLSCNHVFHEFCIRGWCIVGKKQTCPYCKEKVDLKRMIS
B7: PEX2 RING domain (UniProt P28328); chain DNTLATSGKECALCGEWPTMPHTIGCEHIFCYFCAKSSFLFDVYFTCPKCGTEVHSLQPLK
Molecule	lacZ reporter activity
B1 (RNF32 RING domain)	0
B2 (RNF4 RING domain)	2060
B3 (TRIM55 RING domain)	0
LKQVSIRENCCSLCCDEVADTQLKPCGHSDLCMDCALQLETCPLCRKEIVSRIRQI (RSPRY1 RING domain (UniProt Q96DX4))	0
B4 (RFPL2 RING domain)	0
MANWVFCNRCFQPPHRTSCFSLTNCGHVYCDACLGKGKKNECLICKAPCRTVLLSK (RNF212 RING domain (UniProt Q495C1))	0
B5 (ANKIB1 RING domain)	0
B6 (RNF175 RING domain)	0
B7 (PEX2 RING domain)	0

Excerpt of the above (study 2):
Modification	mean fluorescence intensity [a.u.]
2'F-ANA at 2 3 6 9 10 13 15	262
2'F-ANA at 3 6 7 9 13 14 15	436
2'F-ANA at 1 3 4 5 7 10 13	62.9
